Published values collected from several papers.
Parts stem from different laboratories: compare values within a part only. Changes are numbered by the printed parent chain.

Study 1
Target: JUNB, bZIP domain (human)
Method: DHFR protein complementation
Medium: yeast
Notes: single substitutions, most at no-binding floor
Baseline: wild-type JUN-FOS pair
Reading: higher = stronger binding
Parent: JUN, bZIP domain (human); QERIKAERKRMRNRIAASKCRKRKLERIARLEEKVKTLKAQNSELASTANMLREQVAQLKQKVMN; partner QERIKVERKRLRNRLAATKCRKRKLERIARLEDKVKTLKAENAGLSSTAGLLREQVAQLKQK
For `I28V`, the binding fitness was -1.32 natural log.
For `V56L`, the binding fitness was -0.965 natural log.
The binding fitness of `A57E` is reported as -0.848 natural log.
The binding fitness of `Q41I` is reported as -1.11 natural log.
`T48C` gave a binding fitness of -1.25 natural log.
The binding fitness of `L52G` is reported as -1.52 natural log.
With `K34G` the binding fitness was -1.39 natural log.
The binding fitness of `L45W` is reported as -1.48 natural log.

Study 2
Target: Transcription factor SOX-2, HMG box (Sox2, Mus musculus, UniProt P48432, residues 41-119)
UniProt P48432, sequence (41-119, looked up): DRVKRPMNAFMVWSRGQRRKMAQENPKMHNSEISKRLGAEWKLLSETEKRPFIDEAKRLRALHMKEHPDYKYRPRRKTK
Method: Spec-seq
Molecule type: double-stranded DNA, one strand shown
Medium: in vitro
Tested at: not given
Notes: whole probe, mean of replicates
Baseline: not given
Reading: lower = stronger binding
All sequences stand within: GAGTCGTCTCGTCAGCAC … CCGTAGAGCACTCAGGTC
For `ACCCGTT`, “relative binding energy” read 0.567 ln ratio.
For `CATATCA`, “relative binding energy” read 0.299 ln ratio.
`GTAAGTT` — result for “relative binding energy”: 0.771 ln ratio.
`CATCTTA` — result for “relative binding energy”: 0.72 ln ratio.
For `GACCGTT`, “relative binding energy” read 1.36 ln ratio.
`CATCGCG` — result for “relative binding energy”: 0.599 ln ratio.
For `CATGGGC`, “relative binding energy” read 0.0425 ln ratio.
`CATTTCC` — result for “relative binding energy”: 0.589 ln ratio.

Study 3
Target: Prothrombin, mature alpha-thrombin (F2, Homo sapiens, UniProt P00734)
Method: aptamer microarray, sandwich
Molecule type: DNA with 2'F-ANA
Medium: in vitro
Tested at: 200 nM
Notes: whole 15-mer aptamer, many near background
Added: Cy3 exosite-II aptamer, 400 nM
Reading: higher = stronger binding
Sequence: GGTTGGTGTGGTTGG
For `2'F-ANA at 1 3 4 5 11 13`, “mean fluorescence intensity” read 48.5 a.u.
For `2'F-ANA at 5 8 12`, “mean fluorescence intensity” read 186 a.u.
Under “mean fluorescence intensity”, `2'F-ANA at 2 3 5 9 11 12` is recorded as 200 a.u.
Under “mean fluorescence intensity”, `2'F-ANA at 2 4 9 11 14` is recorded as 89.4 a.u.
`2'F-ANA at 1 2 5 7 9 10 11 12` — result for “mean fluorescence intensity”: 49.2 a.u.
For `2'F-ANA at 4 5 6 7 13 15`, “mean fluorescence intensity” read 48.9 a.u.
Under “mean fluorescence intensity”, `2'F-ANA at 1 3 4 7 9 11 12 14` is recorded as 77.9 a.u.
For `2'F-ANA at 5 6 8 13 14`, “mean fluorescence intensity” read 42.8 a.u.

Further values, each from its own experiment
For O=C(NC1CCN(CCc2ccc(F)cc2)CC1)c1cc2ccccc2s1, the remaining compound was 67.6% (human, microsomes or S9; 2 µM, 0.5 h).
